Published values of several laboratories.
Values joined by “and” are separate records of one study, mostly repeats; a detail may differ. ± marks the error that the study gave.
UniProt Q9Y2J8, sequence (whole entry, looked up): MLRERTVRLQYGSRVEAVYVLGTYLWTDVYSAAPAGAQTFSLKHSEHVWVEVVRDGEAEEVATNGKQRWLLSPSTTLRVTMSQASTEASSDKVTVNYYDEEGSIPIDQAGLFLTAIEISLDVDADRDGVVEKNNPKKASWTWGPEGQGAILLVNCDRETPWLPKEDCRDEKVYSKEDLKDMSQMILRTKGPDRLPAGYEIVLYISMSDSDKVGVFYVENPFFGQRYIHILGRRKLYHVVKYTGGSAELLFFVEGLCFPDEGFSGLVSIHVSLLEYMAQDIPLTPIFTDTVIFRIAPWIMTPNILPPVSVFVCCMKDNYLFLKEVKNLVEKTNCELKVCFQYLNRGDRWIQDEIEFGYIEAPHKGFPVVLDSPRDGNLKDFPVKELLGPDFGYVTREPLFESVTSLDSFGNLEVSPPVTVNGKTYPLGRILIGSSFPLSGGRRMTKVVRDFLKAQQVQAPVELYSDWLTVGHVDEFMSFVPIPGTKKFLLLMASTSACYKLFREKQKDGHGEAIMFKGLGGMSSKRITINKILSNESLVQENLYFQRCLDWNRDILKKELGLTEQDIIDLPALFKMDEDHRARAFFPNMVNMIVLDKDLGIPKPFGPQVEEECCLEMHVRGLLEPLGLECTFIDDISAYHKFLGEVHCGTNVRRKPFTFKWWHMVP
UniProt P15056, sequence (whole entry, looked up): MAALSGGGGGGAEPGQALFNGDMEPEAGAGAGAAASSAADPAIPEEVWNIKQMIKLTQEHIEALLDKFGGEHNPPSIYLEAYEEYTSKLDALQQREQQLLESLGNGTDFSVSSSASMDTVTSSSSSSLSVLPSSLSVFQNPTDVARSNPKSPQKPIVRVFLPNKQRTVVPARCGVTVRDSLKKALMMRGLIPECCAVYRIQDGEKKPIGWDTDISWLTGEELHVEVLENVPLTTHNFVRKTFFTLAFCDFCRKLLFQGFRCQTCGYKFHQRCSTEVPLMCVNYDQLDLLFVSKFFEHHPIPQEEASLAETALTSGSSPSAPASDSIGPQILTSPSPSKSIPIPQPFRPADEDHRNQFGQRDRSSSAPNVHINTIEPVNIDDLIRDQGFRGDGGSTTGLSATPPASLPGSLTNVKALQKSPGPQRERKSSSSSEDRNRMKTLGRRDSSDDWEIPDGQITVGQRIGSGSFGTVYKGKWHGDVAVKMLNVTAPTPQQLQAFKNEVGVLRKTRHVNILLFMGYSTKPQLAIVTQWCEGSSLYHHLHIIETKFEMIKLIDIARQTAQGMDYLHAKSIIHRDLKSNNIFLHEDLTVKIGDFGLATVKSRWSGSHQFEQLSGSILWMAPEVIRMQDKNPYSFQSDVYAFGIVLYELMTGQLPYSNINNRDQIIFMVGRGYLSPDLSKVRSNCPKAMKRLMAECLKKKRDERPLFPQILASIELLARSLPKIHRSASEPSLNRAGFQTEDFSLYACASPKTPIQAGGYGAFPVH
UniProt Q8IVH8, sequence (whole entry, looked up): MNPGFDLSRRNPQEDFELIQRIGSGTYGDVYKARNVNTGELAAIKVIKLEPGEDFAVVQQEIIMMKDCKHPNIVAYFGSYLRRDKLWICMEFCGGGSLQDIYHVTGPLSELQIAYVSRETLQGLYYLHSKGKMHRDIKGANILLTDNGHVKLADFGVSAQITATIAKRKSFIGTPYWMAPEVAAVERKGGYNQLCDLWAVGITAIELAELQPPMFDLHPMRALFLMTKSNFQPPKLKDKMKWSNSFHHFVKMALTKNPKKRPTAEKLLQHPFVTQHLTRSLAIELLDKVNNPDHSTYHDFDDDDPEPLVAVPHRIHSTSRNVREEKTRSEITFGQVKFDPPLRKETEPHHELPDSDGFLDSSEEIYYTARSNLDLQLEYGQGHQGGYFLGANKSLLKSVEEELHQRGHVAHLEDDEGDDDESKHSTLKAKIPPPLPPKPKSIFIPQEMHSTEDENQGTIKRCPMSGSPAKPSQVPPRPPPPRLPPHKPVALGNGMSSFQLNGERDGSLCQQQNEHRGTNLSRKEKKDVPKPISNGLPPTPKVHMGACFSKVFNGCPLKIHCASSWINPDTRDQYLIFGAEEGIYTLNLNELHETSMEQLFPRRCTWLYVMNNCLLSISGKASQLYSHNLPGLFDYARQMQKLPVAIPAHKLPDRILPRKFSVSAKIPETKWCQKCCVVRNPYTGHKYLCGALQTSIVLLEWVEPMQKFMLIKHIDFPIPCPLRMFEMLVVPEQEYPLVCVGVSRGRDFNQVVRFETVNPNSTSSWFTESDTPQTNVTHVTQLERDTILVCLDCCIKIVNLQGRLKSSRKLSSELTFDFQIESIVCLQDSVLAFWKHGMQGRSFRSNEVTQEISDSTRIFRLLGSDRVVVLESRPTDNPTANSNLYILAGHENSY
UniProt P50613, sequence (whole entry, looked up): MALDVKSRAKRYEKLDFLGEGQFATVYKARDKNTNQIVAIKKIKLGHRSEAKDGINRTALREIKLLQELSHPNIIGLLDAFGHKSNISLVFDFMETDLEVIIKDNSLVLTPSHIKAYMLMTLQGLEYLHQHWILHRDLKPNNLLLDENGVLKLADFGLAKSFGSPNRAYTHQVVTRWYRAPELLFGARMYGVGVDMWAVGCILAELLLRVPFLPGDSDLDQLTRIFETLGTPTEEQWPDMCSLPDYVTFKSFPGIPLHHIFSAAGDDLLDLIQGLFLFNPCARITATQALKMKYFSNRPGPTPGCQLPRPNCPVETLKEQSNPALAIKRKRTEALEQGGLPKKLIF
UniProt Q13555, sequence (whole entry, looked up): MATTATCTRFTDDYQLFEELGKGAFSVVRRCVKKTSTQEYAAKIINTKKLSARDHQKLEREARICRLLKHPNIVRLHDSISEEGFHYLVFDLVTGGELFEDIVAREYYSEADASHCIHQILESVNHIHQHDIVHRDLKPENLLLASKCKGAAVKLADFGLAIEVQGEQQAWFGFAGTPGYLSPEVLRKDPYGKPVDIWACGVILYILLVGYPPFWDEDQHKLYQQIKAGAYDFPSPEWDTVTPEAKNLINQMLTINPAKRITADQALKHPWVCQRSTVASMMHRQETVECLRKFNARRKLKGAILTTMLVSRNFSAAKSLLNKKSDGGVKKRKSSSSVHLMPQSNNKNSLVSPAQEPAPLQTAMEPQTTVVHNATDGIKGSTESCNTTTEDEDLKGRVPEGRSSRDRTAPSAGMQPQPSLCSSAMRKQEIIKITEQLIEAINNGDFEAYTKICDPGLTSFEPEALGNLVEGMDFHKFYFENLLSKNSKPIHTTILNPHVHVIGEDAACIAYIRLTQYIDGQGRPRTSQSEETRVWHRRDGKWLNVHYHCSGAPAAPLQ
UniProt P30542, sequence (whole entry, looked up): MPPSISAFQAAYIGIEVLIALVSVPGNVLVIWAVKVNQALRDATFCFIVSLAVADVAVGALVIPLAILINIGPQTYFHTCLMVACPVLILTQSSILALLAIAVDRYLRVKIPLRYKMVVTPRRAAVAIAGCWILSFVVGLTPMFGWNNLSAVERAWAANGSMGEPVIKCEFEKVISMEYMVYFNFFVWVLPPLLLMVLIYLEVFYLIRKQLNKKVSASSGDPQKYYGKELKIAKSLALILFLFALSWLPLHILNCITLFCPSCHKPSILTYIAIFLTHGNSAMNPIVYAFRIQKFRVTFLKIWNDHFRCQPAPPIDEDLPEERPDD
UniProt Q96GW9, sequence (whole entry, looked up): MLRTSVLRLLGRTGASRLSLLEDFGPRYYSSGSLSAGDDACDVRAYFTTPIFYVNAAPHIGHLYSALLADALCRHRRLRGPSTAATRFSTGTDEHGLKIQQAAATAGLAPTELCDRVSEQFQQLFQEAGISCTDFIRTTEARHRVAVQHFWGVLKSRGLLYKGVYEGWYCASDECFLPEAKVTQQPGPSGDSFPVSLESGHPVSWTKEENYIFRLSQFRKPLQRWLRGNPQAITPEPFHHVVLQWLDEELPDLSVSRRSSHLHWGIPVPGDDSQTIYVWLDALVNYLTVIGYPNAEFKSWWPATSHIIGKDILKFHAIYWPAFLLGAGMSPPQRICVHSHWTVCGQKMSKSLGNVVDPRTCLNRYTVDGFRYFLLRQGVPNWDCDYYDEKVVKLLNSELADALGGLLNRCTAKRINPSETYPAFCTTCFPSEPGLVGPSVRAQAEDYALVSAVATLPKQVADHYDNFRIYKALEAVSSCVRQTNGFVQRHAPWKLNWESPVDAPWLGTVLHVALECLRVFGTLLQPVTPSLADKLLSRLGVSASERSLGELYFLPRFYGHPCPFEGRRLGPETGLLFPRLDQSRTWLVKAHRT
UniProt O43148, sequence (whole entry, looked up): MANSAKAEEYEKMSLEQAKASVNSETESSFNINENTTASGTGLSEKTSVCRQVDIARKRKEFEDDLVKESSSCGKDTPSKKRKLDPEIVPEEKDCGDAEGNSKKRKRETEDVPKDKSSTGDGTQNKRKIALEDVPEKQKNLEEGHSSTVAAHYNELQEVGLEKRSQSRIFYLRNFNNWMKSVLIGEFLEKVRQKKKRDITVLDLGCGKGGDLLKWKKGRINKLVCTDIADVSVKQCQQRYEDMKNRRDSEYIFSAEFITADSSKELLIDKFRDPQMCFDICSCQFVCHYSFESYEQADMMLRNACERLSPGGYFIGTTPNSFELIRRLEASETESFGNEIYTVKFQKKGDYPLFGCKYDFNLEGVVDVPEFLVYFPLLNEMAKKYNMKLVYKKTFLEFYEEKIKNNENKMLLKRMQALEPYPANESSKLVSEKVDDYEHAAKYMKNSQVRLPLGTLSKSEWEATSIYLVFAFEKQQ
UniProt P41145, sequence (whole entry, looked up): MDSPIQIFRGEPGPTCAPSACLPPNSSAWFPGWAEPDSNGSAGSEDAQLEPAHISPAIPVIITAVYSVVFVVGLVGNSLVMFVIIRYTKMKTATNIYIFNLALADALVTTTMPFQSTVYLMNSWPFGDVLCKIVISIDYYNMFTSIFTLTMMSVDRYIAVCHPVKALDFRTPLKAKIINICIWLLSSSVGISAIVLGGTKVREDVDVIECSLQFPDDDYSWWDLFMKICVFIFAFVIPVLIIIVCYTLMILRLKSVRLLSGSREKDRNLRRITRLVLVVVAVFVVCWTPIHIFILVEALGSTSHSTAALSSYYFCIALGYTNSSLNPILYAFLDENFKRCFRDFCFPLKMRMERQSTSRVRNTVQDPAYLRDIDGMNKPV

| Compound | tested on | test | system | setting | how to read | measurement | value |
| --- | --- | --- | --- | --- | --- | --- | --- |
| N[C@H](C(=O)N1CCCC1)C1CCN(c2nccc3c(-c4ncc(Cl)cc4Cl)cccc23)CC1 | PADI2 (Homo sapiens, UniProt Q9Y2J8) | enzyme activity |  | 0.03932 µM, with: Ca2+ 0.25 mM |  | kcat | 0.618 s⁻¹ and 0.623 s⁻¹ |
| CS(C)(=O)=Nc1ccc(-c2ccc(-c3nc4cc(O[C@@H]5CO[C@H]6[C@@H]5OC[C@H]6O)[nH]c4cc3F)cc2)cc1 | CAMK2G (Homo sapiens, UniProt Q13555) | enzyme activity, inhibitor |  | 10 µM |  | inhibition | 11% |
| O=C1NC2(CC2)COc2ncc(F)cc2[C@H]2COCCN2c2ccn3ncc1c3n2 |  |  | Sprague-Dawley rat, female, blood | oral, 2.5 mg/kg/day, end of treatment, 4-week repeated-dose toxicity | relative to: red blood cells | reticulocytes | 2.09 ± 1.38% |
| CC[C@H](C)[C@H](NC(=O)[C@H](CO)NC(=O)[C@H](Cc1ccc(O)cc1)NC(=O)[C@H](Cc1ccc(O)cc1)NC(=O)[C@H](CC(N)=O)NC(=O)CNC(=O)[C@H](CO)NC(=O)[C@H](Cc1ccc(O)cc1)NC(=O)[C@H](CO)NC(=O)[C@H](CO)NC(=O)[C@H](CC(N)=O)NC(=O)COCCOCCNC(=O)CN1CCN(CC(=O)O)CCN(CC(=O)O)CCN(CC(=O)O)CC1)C(=O)N[C@@H](CC(C)C)C(N)=O [copper-64 labelled] |  | dynamic PET | tamoxifen-induced PDAC mouse model, blood | 0 min, 49 days after tamoxifen |  | mean uptake | 0 %IA/cc |
| Cc1sc2c(c1C)C(c1ccc(Cl)cc1)=NC(CC(=O)OC(C)(C)C)c1nnc(C)n1-2 (stereo not shown) | ADORA1 (Homo sapiens, UniProt P30542) | ligand displacement, radioligand |  | 1 µM |  | remaining binding | 110% |
| CC(C)[C@H]1NC(=O)C[C@H]2/C=C/CCSSC[C@@H](NC1=O)C(=O)N[C@H](Cc1cccc3ccccc13)C(=O)NCC(=O)O2 | BRAF (Homo sapiens, UniProt P15056) |  |  | 10 µM |  | inhibition | 5.3% |
| Clc1cc(Cl)cc(CNCCCNc2nc3ccccc3[nH]2)c1 | MARS2 (Homo sapiens, UniProt Q96GW9) | enzyme activity |  |  | relative to: human IC50 over T. brucei IC50 | selectivity ratio | > 15.7 |
| CC[C@H](C)[C@H](NC(=O)[C@H](Cc1ccc(O)cc1)NC(=O)[C@@H]1CCCN1C(=O)[C@H](C)NC(=O)[C@H](CC(C)C)NC(=O)[C@H](C)NC(=O)[C@H](CO)NC(=O)CNC(=O)[C@H](Cc1c[nH]c2ccccc12)NC(=O)CNC(=O)[C@H](Cc1ccccc1)NC(=O)[C@H](C)NC(=O)[C@H](CC(C)C)NC(=O)[C@H](CO)NC(=O)[C@H](CCSC)NC(=O)[C@H](Cc1ccc(O)cc1)NC(=O)[C@H](CCC(N)=O)NC(=O)[C@@H](NC(=O)[C@H](CCCNC(=N)N)NC(=O)[C@@H]1CCCN1C(=O)[C@@H](NC(=O)[C@@H](NC(=O)[C@@H]1CCCN1C(=O)CN)C(C)C)C(C)C)[C@@H](C)O)C(=O)N1CCC[C@H]1C(=O)O | TP53 (Homo sapiens, UniProt P04637, R175H) | degrader, Western blot | H1299 cotransfected | concentration not given, 24 h |  | protein level | decreased |
| CN(C)[C@H]1C[C@@]23CC[C@@]4(O2)C(=CC[C@]2(C)[C@@H](c5ccc6ccncc6c5)CC[C@H]24)C=C3[C@@H](O)[C@@H]1O | CDK7 (Homo sapiens, UniProt P50613) | ATP probe labelling, inhibitor, KiNativ profiling |  | 1 µM |  | inhibition | 4.6% |
| CS(=O)(=O)N1CCN(C(=O)Cc2ccc(Cl)c(Cl)c2)[C@H]2[C@H]1COC[C@@H]2N1CCCC1 (single isomer, unassigned) | OPRK1 (Homo sapiens, UniProt P41145) | β-arrestin-2 recruitment, agonist | U2OS | 1.5 h | relative to: U-69593 maximal response | Emax | 99% |
| O=C(NC1CCN(c2ncnc3[nH]cnc23)CC1)c1cccc(NS(=O)(=O)c2ccc(C(F)(F)F)cc2)c1 | RNMT (Homo sapiens, UniProt O43148) | enzyme activity, inhibitor |  | 0.7812 µM |  | inhibition | 4.89% |
| CC(C)CC(O)(CC(C)C)c1cn(C(=O)N2CCCC2)nn1 | Acylamino-acid-releasing enzyme (Apeh, Mus musculus, UniProt Q8R146) | enzyme activity, inhibitor, measured: Apeh | mouse, brain | i.p., 0.8 mg/kg, 4 h, protein level | relative to: vehicle | ratio of ratios | 0 |
| CC(C)(C)C(=O)OCOP(=O)(OCOC(=O)C(C)(C)C)C1CCCN(O)C1=O (stereo not shown) | U-251 |  |  |  |  | GI50 | 341 nM |
| O=C(CN1CN(c2ccccc2)C2(CCN(C(=O)c3cnc4[nH]ncc4c3)CC2)C1=O)NCC(F)(F)F | MAP4K3 (Homo sapiens, UniProt Q8IVH8) | inhibitor |  | concentration not given |  | inhibition | < 50% |
| CSCC[C@@H](N)C(=O)N[C@H](C)C(=O)N[C@H](C)C(=O)N[C@@H](C(=O)N[C@H](C)C(=O)NCC(=O)N[C@H](CC(C)C)C(=O)N[C@H](Cc1ccc(O)cc1)C(=O)NCC(=O)N[C@H](CC(C)C)C(=O)NCC(=O)N[C@H](CCC(=O)O)C(=O)N[C@H](CC(=O)O)C(=O)N[C@H](CCCNC(=N)N)C(=O)N[C@H](CCC(N)=O)C(=O)N[C@H](Cc1c[nH]cn1)C(=O)N[C@H](CCCNC(=N)N)C(=O)N[C@H](CCCCN)C(=O)N[C@H](CCCCN)C(=O)N[C@H](CCC(N)=O)C(N)=O)C(C)C | Sh, DEL6-46 (Drosophila melanogaster, UniProt P08510) | ion current, blocker, inside-out patch clamp |  | +70 mV |  | Hill coefficient | 0.86 |
| COc1ccccc1-c1n[nH]c2nc(N[C@H]3CC[C@H](NS(=O)(=O)CC(C)C)CC3)ncc12 |  | bead binding, competition bead pull-down, measured: LINJ.26.0590 | Leishmania donovani extract | 10 µM | relative to: vehicle | relative abundance | 0.5 |
| CCc1nnc(-c2c(OC)cc(-c3cnc4cc(-c5cnn(C)c5)ccn34)cc2OC)o1 | HTR3A (Homo sapiens, UniProt P46098) | antagonist radioligand, radioligand binding |  | 10 µM, SafetyScreen44 5-HT3 replicate 2 | lower = stronger displacement | remaining binding | 114% |
| COc1ccccc1-c1n[nH]c2nc(NC3CCN(C(=O)Cc4ccc(F)cc4F)CC3)ncc12 |  | bead binding, competition bead pull-down, measured: LINJ.36.0600 | Leishmania donovani axenic amastigote extract | 10 µM | relative to: vehicle | relative abundance | 0.42 |
| O=C1NC(=O)c2c1c1cc(F)c[n+]3c1c1c2c2cc(O)ccc2[n]1[Ru-4]312([N]=C=S)[S+]3CC[S+]1CC[S+]2CC3 (stereo not shown) | Rps6ka1 (Rattus norvegicus, UniProt Q63531) | enzyme activity |  | 100 nM, rat enzyme, with: 10 µM ATP | relative to: untreated | remaining activity | 5% |
